Assay results collected from several papers.
Compare with care: the assays were run in different laboratories. “And” joins repeats or separate records; there may be more than shown. ± gives the spread as reported.
Aminopeptidase N: Aminopeptidase N (Neisseria meningitidis, UniProt Q9JYV4)

CC(C)C[C@H](NC(=O)[C@H](C)NC(=O)[C@H](C)NC(=O)[C@H](C)NC(=O)[C@H](C)NC(=O)[C@@H](NC(=O)[C@H](CC(C)C)NC(=O)[C@H](CCCCN)NC(=O)[C@H](CCC(=O)O)NC(=O)[C@@H](NC(=O)[C@H](CO)NC(=O)CN)C(C)C)[C@@H](C)O)C(=O)N[C@@H](CCC(N)=O)C(=O)N[C@@H](CCCNC(=N)N)C(=O)N[C@@H](CC(C)C)C(=O)N[C@@H](CCCCN)C(=O)N[C@@H](CC(N)=O)C(=O)N[C@@H](CCC(=O)O)C(=O)N[C@@H](CCCNC(=N)N)C(=O)N[C@@H](Cc1c[nH]cn1)C(=O)N[C@@H](CCC(=O)O)C(=O)N[C@@H](CCC(=O)O)C(=O)N[C@@H](C)C(=O)N[C@@H](CCC(=O)O)C(=O)N[C@@H](CC(C)C)C(=O)N[C@@H](CCC(=O)O)C(=O)N[C@@H](CCCNC(=N)N)C(=O)N[C@@H](CC(C)C)C(=O)N[C@@H](CCCCN)C(=O)N[C@@H](CO)C(=O)N[C@@H](CCC(=O)O)C(=O)N[C@@H](Cc1ccc(O)cc1)C(=O)O — kon (Plasminogen (PLG, Homo sapiens, UniProt P00747, C188G/E240D/L256Y); binding, SPR; pH 7.4): 261000 M⁻¹ s⁻¹
CCN(Cc1ccccc1)C(=O)CCc1nc(CN2CCN(C(=O)Cc3ccc(OC)c(OC)c3)CC2)no1 — current fold increase (Potassium voltage-gated channel subfamily KQT member 4 (KCNQ4, Homo sapiens, UniProt P56696); potassium current, opener, whole-cell patch clamp; CHO stable; 10 µM; reference: control): 1.3 ± 0.05
C=CC1CN2CCC1CC2C(O)c1c(-c2ccc(N=Nc3ccccc3)cc2)cnc2ccc(OC)cc12 (centres unmarked) — photoswitching efficacy (Sodium channel protein type 5 subunit alpha (SCN5A, Homo sapiens, UniProt Q14524); sodium current, whole-cell patch clamp; HEK-293T; 10 µM, added: light 365 versus 480 nm): 33.1 ± 4.3%
C/C=C1/CN2CCc3c([nH]c4ccccc34)[C@@H]2C[C@@H]1/C(=C\OC)C(=O)OC — maximal effect (5-hydroxytryptamine receptor 1A (HTR1A, Homo sapiens, UniProt P08908); agonist; reference: 5-HT): ~40%
CC(C)(C)n1ccc(C(=O)N2CCN(c3nc4ccccc4s3)CC2)c1 — kmax (hh, C-terminal autoprocessing domain (Drosophila melanogaster, UniProt Q02936); inhibitor; 10 µM): 0.00048 s⁻¹
CC(C)OC(=O)c1ccc(OC(=O)C2CCN(C(=O)OC(C)(C)C)CC2)cc1 — inhibitory concentration (ATP-dependent Clp protease proteolytic subunit (clpP, Staphylococcus aureus, UniProt Q2G036); enzyme activity, inhibitor): < 1 µM
O=C(O)CCCC(=O)O — inhibition (Acetylcholinesterase (ACHE, Homo sapiens, UniProt P22303); enzyme activity, inhibitor; 62.5 µg/mL): 41.2 ± 1.71%
Cc1cc(O)cc(C)c1CC(N)C(=O)NC1CCNc2c(C(=O)Nc3ccccc3)cc(Cc3ccccc3)cc21 (centres unmarked) — Ke (Delta-type opioid receptor (Oprd1, Rattus norvegicus, UniProt P33533); GTPγS binding, antagonist; added: SNC80): 31.5 nM
CN(C)CCCSC(=S)N1CCN(C(=O)/C=C/c2coc3ccccc3c2=O)CC1 — fold reduction in affinity (Nucleoprotein (N, Tomato spotted wilt virus, UniProt P25999, R94A); binding, microscale thermophoresis; concentration not given; reference: wild type over mutant): ~103
Nc1nc2c([C@@H]3O[C@@H]4COP(=O)(O)O[C@H]5[C@@H](O)[C@H](n6cnc7c(=O)[nH]c(N)nc76)O[C@@H]5COP(=O)(O)O[C@H]4[C@H]3O)scc2c(=O)[nH]1 — dissociation rate constant k-1 (Cyclic di-GMP phosphodiesterase RocR (rocR, Pseudomonas aeruginosa, UniProt Q9HX69); substrate, HPLC; 10 µM, added: 100 nM enzyme): 0.033 ± 0.001 s⁻¹
CC[C@H](C)[C@H](NC(=O)[C@@H](NC(=O)[C@H](CCCCN)NC(=O)[C@H](CO)NC(=O)CN)[C@@H](C)O)C(=O)N[C@@H](CCC(N)=O)C(=O)N[C@@H](CCC(=O)O)C(=O)N[C@@H](CCCCN)C(=O)N[C@@H](CCC(=O)O)C(=O)N[C@@H](CCC(N)=O)C(=O)N[C@@H](CCC(=O)O)C(=O)N[C@@H](CC(C)C)C(=O)N[C@@H](CCCCN)C(=O)N[C@@H](CC(N)=O)C(=O)N[C@@H](CC(C)C)C(=O)N[C@@H](CCCCN)C(=O)N[C@@H](CC(=O)O)C(=O)N[C@@H](CC(N)=O)C(=O)N[C@H](C(=O)N[C@@H](CCC(=O)O)C(=O)N[C@@H](CC(C)C)C(=O)N[C@@H](CCC(=O)O)C(=O)N[C@@H](CCCNC(=N)N)C(=O)N[C@@H](CC(C)C)C(=O)N[C@@H](CCCCN)C(=O)N[C@@H](CC(N)=O)C(=O)N[C@@H](CCC(=O)O)C(=O)N[C@@H](CCCNC(=N)N)C(=O)N[C@@H](Cc1c[nH]cn1)C(=O)N[C@@H](CC(=O)O)C(=O)N[C@@H](Cc1c[nH]cn1)C(=O)N[C@@H](CC(=O)O)C(=O)N[C@@H](CCC(=O)O)C(=O)N[C@@H](CCC(=O)O)C(=O)N[C@@H](C)C(=O)N[C@@H](CCC(=O)O)C(=O)N[C@@H](CCCNC(=N)N)C(=O)N[C@@H](CCCCN)C(=O)N[C@@H](C)C(=O)N[C@@H](CC(C)C)C(=O)N[C@@H](CCC(=O)O)C(=O)N[C@@H](CC(=O)O)C(=O)N[C@@H](CCCCN)C(=O)N[C@@H](CC(C)C)C(=O)N[C@@H](C)C(=O)N[C@@H](CC(=O)O)C(=O)N[C@@H](CCCCN)C(=O)N[C@@H](CCC(N)=O)C(=O)N[C@@H](CCC(=O)O)C(=O)N[C@@H](Cc1c[nH]cn1)C(=O)N[C@@H](CC(C)C)C(=O)N[C@@H](CC(=O)O)C(=O)NCC(=O)N[C@@H](C)C(=O)N[C@@H](CC(C)C)C(=O)N[C@@H](CCCNC(=N)N)C(=O)N[C@@H](Cc1ccc(O)cc1)C(=O)O)C(C)C — koff (Plasminogen, kringle 2 domain (PLG, Homo sapiens, UniProt P00747, C188G/E240D/L256Y); SPR; pH 7.4, 25 °C, kringle 2 domain): 0.154 ± 0.015 s⁻¹
CC(C)C[C@@H]1NC(=O)[C@H](CCCNC(=N)N)NC(=O)[C@H](CCCCN)NC(=O)[C@H](CC(=O)O)NC(=O)[C@H](CCCCN)NC(=O)[C@@H](CO)NC1=O — soluble CD23 level (Disintegrin and metalloproteinase domain-containing protein 8 (Homo sapiens, UniProt P78325); COS-7, transfected with target and CD23, supernatant; 500 nM, 12 h): not detected
N#Cc1nc(N2CCOCC2)nc(N(Cc2ccc(F)cc2)CC2CCCCC2)n1 — selectivity ratio (CPL (Toxoplasma gondii, UniProt Q6DMN0); enzyme activity, inhibitor; reference: human over Toxoplasma IC50): 3.7 and ~4
CCCCCCCCP(=O)(Oc1ccccc1)O[C@@H]1O[C@H](CO)[C@@H](O)[C@H](O)[C@H]1F (some centres unmarked) — inactivation rate constant (Lysosomal acid glucosylceramidase (GBA1, Homo sapiens, UniProt P04062); enzyme activity, irreversible inhibitor; pH 5.5, 37 °C, added: 2,4-dinitrophenyl beta-D-glucopyranoside): 18.6 min⁻¹
CC(=O)/C(C#N)=C/c1cccc(C(N)=O)c1 — binding enthalpy (Genome polyprotein, 3C protease (Human enterovirus D68, UniProt Q68T42, C1641Y/I1565V/I1594T/R1603K/Y1579H); ITC; enterovirus D68; concentration not given, 25 °C, added: DTT 10 mM): -2.51 kcal/mol
NCCCC[C@H](N)C(=O)Nc1ccc2c(CC(N)=O)cc(=O)oc2c1 — Km (Aminopeptidase N; enzyme activity, substrate; pH 7.5, 37 °C): 88.7 ± 1.2 µM
O=C(NC1(Cc2cccc(F)c2)CCC1)c1ccc(S(=O)(=O)F)cc1 — maximal surface localization (Sodium- and chloride-dependent creatine transporter 1 (SLC6A8, Homo sapiens, UniProt P48029, P544L); PathHunter trafficking; U-2 OS expressing SLC6A8; 24 h; reference: DMSO): ~2 fold
CC[C@H](C)[C@H](NC(=O)[C@H](CC(N)=O)NC(=O)[C@H](CCC(=O)O)NC(=O)[C@H](CCC(=O)O)NC(=O)[C@H](CCC(=O)O)NC(=O)[C@H](CC(N)=O)NC(=O)[C@H](CCCNC(=N)N)NC(=O)[C@@H]1CCCN1C(=O)[C@H](CCCCN)NC(=O)[C@@H](NC(=O)[C@@H](NC(=O)[C@H](C)NC(=O)[C@H](CC(=O)O)NC(=O)[C@H](CCSC)NC(=O)[C@@H]1CCCN1C(=O)[C@H](CCC(=O)O)NC(=O)[C@H](C)NC(=O)[C@H](Cc1ccc(OP(=O)(O)O)cc1)NC(=O)[C@H](CC(=O)O)NC(=O)[C@H](CO)NC(=O)[C@@H]1CCCN1C(=O)[C@H](CC(=O)O)NC(C)=O)C(C)C)C(C)C)C(=O)N[C@@H](Cc1ccc(OP(=O)(O)O)cc1)C(=O)N[C@@H](CO)C(=O)N[C@H](C(=O)N1CCC[C@H]1C(=O)N[C@@H](Cc1c[nH]cn1)C(=O)N[C@@H](CC(=O)O)C(=O)N[C@@H](CO)C(N)=O)C(C)C — binding entropy (Ras GTPase-activating protein 1, SH2-SH3-SH2 region (RASA1, Homo sapiens, UniProt P20936, C236S/C261S/C372S/C402S); isothermal titration calorimetry; concentration not given, pH 8.0, added: doubly phosphorylated p190RhoGAP peptide): -280 ± 80 J/(mol·K)
CC(C)C[C@H](N)C(=O)Nc1ccc2c(CC(N)=O)cc(=O)oc2c1 — relative hydrolysis rate (Aminopeptidase N; enzyme activity, substrate; 3 µM, pH 7.5, 37 °C; reference: L-hArg-ACC): < 20%
CS(C)(=O)=Nc1ccc(-c2ccc(-c3nc4cc(O[C@@H]5CO[C@H]6[C@@H]5OC[C@H]6O)[nH]c4cc3F)cc2)cc1 — EC150 (PRKAB2/PRKAA1, with gamma2 subunit (Homo sapiens, UniProt O43741+Q13131); enzyme activity, activator; 60 min, 50% above basal activity, added: ATP 50 µM): 0.876 nM
CC(=O)NC(Cc1ccc(Br)c(Cl)c1)C(=O)N[C@@H](C)C(=O)N1CCC[C@H]1C(=O)N1CCC[C@H]1C(=O)N[C@@H](CCC(=O)O)C(=O)N[C@@H](Cc1c[nH]cn1)C(=O)N[C@@H](CO)C(=O)N[C@H](C(=O)N[C@@H](C)C(N)=O)[C@@H](C)OP(=O)(O)O (some centres unmarked) — inhibition (Serine/threonine-protein kinase DCLK2 (DCLK2, Homo sapiens, UniProt Q8N568); enzyme activity, inhibitor; 10 µM): 0.48%
OC[C@@H]1[C@@H](O)[C@H](O)[C@@H](O)[C@@H]2N[C@H]12 — kinact/KI (Lysosomal acid glucosylceramidase (GBA1, Homo sapiens, UniProt P04062, R534H); enzyme activity, inhibitor; pH 5.2): 317 M⁻¹ s⁻¹
Cc1ncsc1-c1ccc([C@H](C)NC(=O)[C@@H]2C[C@@H](O)CN2C(=O)[C@@H](NC(=O)CN2CCC(CN3CCN(CCC(=O)N4CCN(c5ncc(-c6cc(NC(=O)c7ccc(F)cc7C(F)(F)F)c(N7C[C@@H](C)N(C)[C@@H](C)C7)cc6F)cn5)CC4)CC3)CC2)C(C)(C)C)cc1 — degradation (WD repeat protein WDS (Spodoptera frugiperda, UniProt A0A2H1VC02); degrader, targeted MS; Spodoptera frugiperda L5 larvae; injection, 0.1 nmol/mg): 22%

For quick reference, copied from above:
CS(C)(=O)=Nc1ccc(-c2ccc(-c3nc4cc(O[C@@H]5CO[C@H]6[C@@H]5OC[C@H]6O)[nH]c4cc3F)cc2)cc1 — EC150 (PRKAB2/PRKAA1, with gamma2 subunit (Homo sapiens, UniProt O43741+Q13131); enzyme activity, activator; 60 min, 50% above basal activity, added: ATP 50 µM): 0.876 nM
CC(C)C[C@H](NC(=O)[C@H](C)NC(=O)[C@H](C)NC(=O)[C@H](C)NC(=O)[C@H](C)NC(=O)[C@@H](NC(=O)[C@H](CC(C)C)NC(=O)[C@H](CCCCN)NC(=O)[C@H](CCC(=O)O)NC(=O)[C@@H](NC(=O)[C@H](CO)NC(=O)CN)C(C)C)[C@@H](C)O)C(=O)N[C@@H](CCC(N)=O)C(=O)N[C@@H](CCCNC(=N)N)C(=O)N[C@@H](CC(C)C)C(=O)N[C@@H](CCCCN)C(=O)N[C@@H](CC(N)=O)C(=O)N[C@@H](CCC(=O)O)C(=O)N[C@@H](CCCNC(=N)N)C(=O)N[C@@H](Cc1c[nH]cn1)C(=O)N[C@@H](CCC(=O)O)C(=O)N[C@@H](CCC(=O)O)C(=O)N[C@@H](C)C(=O)N[C@@H](CCC(=O)O)C(=O)N[C@@H](CC(C)C)C(=O)N[C@@H](CCC(=O)O)C(=O)N[C@@H](CCCNC(=N)N)C(=O)N[C@@H](CC(C)C)C(=O)N[C@@H](CCCCN)C(=O)N[C@@H](CO)C(=O)N[C@@H](CCC(=O)O)C(=O)N[C@@H](Cc1ccc(O)cc1)C(=O)O — kon (Plasminogen (PLG, Homo sapiens, UniProt P00747, C188G/E240D/L256Y); binding, SPR; pH 7.4): 261000 M⁻¹ s⁻¹
